{"data": "Assay results from different studies", "note": "Each numbered part is a random draw from the data of one study; scales do not carry over between parts.", "sequence of UniProt O00141 (whole entry, looked up)": "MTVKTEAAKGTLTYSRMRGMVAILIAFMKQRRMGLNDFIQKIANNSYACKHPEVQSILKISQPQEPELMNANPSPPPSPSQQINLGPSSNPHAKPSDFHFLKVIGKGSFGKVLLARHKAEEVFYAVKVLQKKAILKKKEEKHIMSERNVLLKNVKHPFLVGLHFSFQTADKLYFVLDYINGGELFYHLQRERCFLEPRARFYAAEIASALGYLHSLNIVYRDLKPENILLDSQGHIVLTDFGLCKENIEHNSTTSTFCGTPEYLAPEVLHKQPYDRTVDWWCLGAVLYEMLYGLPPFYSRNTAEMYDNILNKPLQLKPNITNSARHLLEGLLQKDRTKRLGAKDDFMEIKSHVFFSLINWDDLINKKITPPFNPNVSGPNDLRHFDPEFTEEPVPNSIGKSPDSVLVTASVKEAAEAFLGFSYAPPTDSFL", "sequence of UniProt P35916 (whole entry, unmodified, looked up)": "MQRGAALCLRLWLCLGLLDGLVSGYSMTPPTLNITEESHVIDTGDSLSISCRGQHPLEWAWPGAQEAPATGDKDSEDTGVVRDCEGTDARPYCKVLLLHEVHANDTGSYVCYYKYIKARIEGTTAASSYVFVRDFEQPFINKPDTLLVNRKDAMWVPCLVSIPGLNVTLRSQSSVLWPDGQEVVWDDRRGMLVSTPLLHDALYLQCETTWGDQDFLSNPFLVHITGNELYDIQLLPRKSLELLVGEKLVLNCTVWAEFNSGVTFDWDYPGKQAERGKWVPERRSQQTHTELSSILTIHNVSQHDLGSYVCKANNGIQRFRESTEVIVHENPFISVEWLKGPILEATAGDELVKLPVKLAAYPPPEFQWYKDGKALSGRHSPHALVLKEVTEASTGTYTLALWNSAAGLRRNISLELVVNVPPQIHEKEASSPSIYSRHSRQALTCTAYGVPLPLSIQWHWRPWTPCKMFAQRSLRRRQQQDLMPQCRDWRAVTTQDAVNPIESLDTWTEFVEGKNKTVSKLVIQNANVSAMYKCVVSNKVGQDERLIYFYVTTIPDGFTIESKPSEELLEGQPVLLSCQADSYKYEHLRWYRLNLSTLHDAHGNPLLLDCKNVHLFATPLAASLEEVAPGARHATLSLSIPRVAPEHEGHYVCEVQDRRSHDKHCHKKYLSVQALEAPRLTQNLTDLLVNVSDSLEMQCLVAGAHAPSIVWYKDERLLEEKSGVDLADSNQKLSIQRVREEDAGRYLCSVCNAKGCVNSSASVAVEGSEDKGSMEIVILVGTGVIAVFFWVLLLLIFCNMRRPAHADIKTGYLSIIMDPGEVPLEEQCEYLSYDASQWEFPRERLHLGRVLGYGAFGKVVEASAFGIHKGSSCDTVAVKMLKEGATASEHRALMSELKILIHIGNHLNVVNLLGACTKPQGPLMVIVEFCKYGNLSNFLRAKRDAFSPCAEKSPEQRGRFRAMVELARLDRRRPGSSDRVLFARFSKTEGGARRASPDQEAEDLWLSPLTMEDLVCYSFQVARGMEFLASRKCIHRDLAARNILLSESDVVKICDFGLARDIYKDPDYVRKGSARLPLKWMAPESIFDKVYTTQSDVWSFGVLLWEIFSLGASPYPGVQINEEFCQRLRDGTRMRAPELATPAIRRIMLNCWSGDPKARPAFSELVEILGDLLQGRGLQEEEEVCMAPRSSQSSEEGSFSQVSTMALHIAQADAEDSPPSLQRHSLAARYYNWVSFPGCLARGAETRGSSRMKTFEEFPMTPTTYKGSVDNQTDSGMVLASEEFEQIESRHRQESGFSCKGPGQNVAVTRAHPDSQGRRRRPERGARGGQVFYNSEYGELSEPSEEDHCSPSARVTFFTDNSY", "sequence of UniProt Q07002 (whole entry, looked up)": "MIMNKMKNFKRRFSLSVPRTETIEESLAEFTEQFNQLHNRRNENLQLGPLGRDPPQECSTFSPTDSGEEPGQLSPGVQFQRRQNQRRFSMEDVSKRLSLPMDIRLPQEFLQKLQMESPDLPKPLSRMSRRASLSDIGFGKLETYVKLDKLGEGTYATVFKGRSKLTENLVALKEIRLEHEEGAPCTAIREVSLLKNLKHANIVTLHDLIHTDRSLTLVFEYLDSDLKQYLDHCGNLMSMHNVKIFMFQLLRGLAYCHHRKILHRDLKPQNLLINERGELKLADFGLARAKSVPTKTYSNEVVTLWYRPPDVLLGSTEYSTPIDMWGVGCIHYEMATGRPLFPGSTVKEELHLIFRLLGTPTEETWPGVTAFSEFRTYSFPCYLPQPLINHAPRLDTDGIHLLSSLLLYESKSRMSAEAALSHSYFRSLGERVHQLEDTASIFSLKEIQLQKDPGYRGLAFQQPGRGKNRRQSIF", "sequence of UniProt Q9Y2H1 (whole entry, looked up)": "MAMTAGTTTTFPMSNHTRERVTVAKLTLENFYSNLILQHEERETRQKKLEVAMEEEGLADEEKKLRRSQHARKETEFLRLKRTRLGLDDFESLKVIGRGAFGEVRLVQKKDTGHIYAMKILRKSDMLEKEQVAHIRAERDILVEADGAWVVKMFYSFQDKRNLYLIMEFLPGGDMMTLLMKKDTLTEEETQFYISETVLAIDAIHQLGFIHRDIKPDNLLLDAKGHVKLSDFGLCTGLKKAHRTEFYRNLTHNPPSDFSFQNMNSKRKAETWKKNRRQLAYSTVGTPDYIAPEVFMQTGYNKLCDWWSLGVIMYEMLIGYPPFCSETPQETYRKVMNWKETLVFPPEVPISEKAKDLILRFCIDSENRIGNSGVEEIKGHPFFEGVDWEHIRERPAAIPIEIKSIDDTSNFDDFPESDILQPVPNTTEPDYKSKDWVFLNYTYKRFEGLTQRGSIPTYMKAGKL", "sequence of UniProt P22612 (whole entry, looked up)": "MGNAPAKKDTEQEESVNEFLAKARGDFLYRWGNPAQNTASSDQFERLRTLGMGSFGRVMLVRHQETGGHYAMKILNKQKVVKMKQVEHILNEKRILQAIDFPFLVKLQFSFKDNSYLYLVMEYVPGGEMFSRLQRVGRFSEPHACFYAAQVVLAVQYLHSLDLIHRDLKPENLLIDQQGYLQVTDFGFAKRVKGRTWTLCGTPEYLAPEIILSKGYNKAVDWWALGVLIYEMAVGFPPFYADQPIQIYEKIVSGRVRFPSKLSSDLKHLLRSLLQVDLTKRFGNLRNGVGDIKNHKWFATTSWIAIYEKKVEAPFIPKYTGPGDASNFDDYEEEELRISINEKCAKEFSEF"}
{"data": "Study 1", "Structure (SMILES)": "O=C1NC(=O)C(c2cn(-c3ccccc3)nc2-c2ccc(F)cc2)N1 (stereo not drawn)", "action": "inhibitor", "tested at": "5 µM"}
{"target": "Tyrosine-protein kinase Fes/Fps (FES, Homo sapiens, UniProt P07332)", "assay": "cell-based kinome screen", "test system": "human cells", "scale": "relative to: vehicle", "log2 fold change": 0.095}
{"target": "Receptor-type tyrosine-protein kinase FLT3 (FLT3, Homo sapiens, UniProt P36888)", "assay": "cell-based kinome screen", "test system": "human cells", "scale": "relative to: vehicle", "log2 fold change": 0.207}
{"target": "Serine/threonine-protein kinase DCLK2 (DCLK2, Homo sapiens, UniProt Q8N568)", "test system": "human cells", "scale": "relative to: vehicle", "log2 fold change": -0.636}
{"target": "Cyclin-dependent kinase 18 (CDK18, Homo sapiens, UniProt Q07002)", "test system": "human cells", "scale": "relative to: vehicle", "log2 fold change": -0.395}
{"target": "Serine/threonine-protein kinase 38-like (STK38L, Homo sapiens, UniProt Q9Y2H1)", "assay": "kinase-CDC37 interaction", "test system": "human cells", "scale": "relative to: vehicle", "log2 fold change": 0.252}
{"target": "Tyrosine-protein kinase STYK1 (STYK1, Homo sapiens, UniProt Q6J9G0)", "assay": "kinase-CDC37 interaction", "test system": "human cells", "scale": "relative to: vehicle", "log2 fold change": -0.351}
{"target": "Vascular endothelial growth factor receptor 3 (FLT4, Homo sapiens, UniProt P35916, P1114L)", "assay": "cell-based translocation", "test system": "human cells", "setting": "hereditary lymphedema type 1A variant", "scale": "relative to: vehicle", "log2 fold change": -0.189}
{"target": "Serine/threonine-protein kinase Sgk1, with CDC37 (SGK1, Homo sapiens, UniProt O00141)", "assay": "kinase activity", "setting": "cell-based kinome screen", "scale": "relative to: vehicle", "log2 fold change": 0.241}
{"target": "cAMP-dependent protein kinase catalytic subunit gamma (PRKACG, Homo sapiens, UniProt P22612)", "assay": "kinase–CDC37 interaction", "setting": "kinome plate 3@C04", "scale": "relative to: vehicle", "log2 fold change": -0.42}
{"target": "Bone morphogenetic protein receptor type-2 (BMPR2, Homo sapiens, UniProt Q13873, C483R)", "assay": "cell-based kinome profiling", "test system": "human cells", "scale": "relative to: vehicle control", "log2 fold change": -0.08}
{"data": "Study 2", "target": "Serine/threonine-protein kinase Nek6 (NEK6, Homo sapiens, UniProt Q9HC98)", "read-out": "enzyme activity", "action": "inhibitor", "tested at": "0.5 µM", "relative to": "control", "sequence of UniProt Q9HC98 (whole entry, looked up)": "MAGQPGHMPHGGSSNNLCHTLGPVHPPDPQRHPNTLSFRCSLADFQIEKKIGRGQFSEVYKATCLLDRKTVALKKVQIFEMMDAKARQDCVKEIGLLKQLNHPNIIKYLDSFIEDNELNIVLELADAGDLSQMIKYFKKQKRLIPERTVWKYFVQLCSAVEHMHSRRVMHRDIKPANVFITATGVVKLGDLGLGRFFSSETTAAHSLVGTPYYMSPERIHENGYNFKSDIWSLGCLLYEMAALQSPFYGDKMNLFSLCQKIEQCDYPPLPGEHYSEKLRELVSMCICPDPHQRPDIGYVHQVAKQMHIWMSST"}
{"SMILES": "NCCNc1ncc(C(N)=O)c(Nc2cccc(C(F)(F)F)c2)n1", "remaining activity [%]": 105}
{"SMILES": "O=S(=O)(c1cccc2cnccc12)N1CCCNCC1", "remaining activity [%]": 97.6}
{"SMILES": "Cn1c2ccccc2c2c3c(c4c5ccccc5n(CCC#N)c4c21)CNC3=O", "remaining activity [%]": 103}
{"SMILES": "Nc1[nH]nc2nc3ccccc3nc12", "remaining activity [%]": 95.5}
{"SMILES": "C#Cc1cccc(Nc2ncnc3cc(OCCOC)c(OCCOC)cc23)c1", "remaining activity [%]": 89.1}
{"SMILES": "Nc1ncnc2n[nH]c(Nc3ccc(F)cc3)c12", "remaining activity [%]": 102}
{"SMILES": "O=C(CCCc1ccc(-c2ccccc2F)cc1)Nc1ccc(O)cc1", "remaining activity [%]": 99.4}
{"SMILES": "COc1ccc(CNC(=O)Nc2ncc([N+](=O)[O-])s2)cc1", "remaining activity [%]": 100}
{"SMILES": "Nc1ccc2ncnc(NCCc3ccc(Oc4ccccc4)cc3)c2c1", "remaining activity [%]": 103}
{"SMILES": "N#CC(C#N)=C(N)/C(C#N)=C/c1ccc(O)cc1", "remaining activity [%]": 97.3}
{"SMILES": "COc1ccc(OC)c2c(=S)c3ccccc3[nH]c12", "remaining activity [%]": 101}
{"SMILES": "COc1cc2ncnc(Nc3ccc(F)c(Cl)c3)c2cc1OCCCN1CCOCC1", "remaining activity [%]": 89.9}
{"SMILES": "Oc1ccc(-c2nc(-c3ccncc3)c(-c3ccc(F)cc3)[nH]2)cc1", "remaining activity [%]": 99.4}
{"SMILES": "CNC(=O)c1cc(Oc2ccc(NC(=O)Nc3ccc(Cl)c(C(F)(F)F)c3)cc2)ccn1", "remaining activity [%]": 105}
{"SMILES": "O=C1NC(=O)C(c2cn(CCCn3ccnc3)c3ccccc23)=C1Nc1ccccc1", "remaining activity [%]": 93.6}
{"data": "Study 3", "target": "Calcium/calmodulin-dependent protein kinase type II subunit alpha (CAMK2A, Homo sapiens, UniProt Q9UQM7)", "read-out": "enzyme activity", "action": "inhibitor", "tested at": "10 µM", "sequence of UniProt Q9UQM7 (whole entry, looked up)": "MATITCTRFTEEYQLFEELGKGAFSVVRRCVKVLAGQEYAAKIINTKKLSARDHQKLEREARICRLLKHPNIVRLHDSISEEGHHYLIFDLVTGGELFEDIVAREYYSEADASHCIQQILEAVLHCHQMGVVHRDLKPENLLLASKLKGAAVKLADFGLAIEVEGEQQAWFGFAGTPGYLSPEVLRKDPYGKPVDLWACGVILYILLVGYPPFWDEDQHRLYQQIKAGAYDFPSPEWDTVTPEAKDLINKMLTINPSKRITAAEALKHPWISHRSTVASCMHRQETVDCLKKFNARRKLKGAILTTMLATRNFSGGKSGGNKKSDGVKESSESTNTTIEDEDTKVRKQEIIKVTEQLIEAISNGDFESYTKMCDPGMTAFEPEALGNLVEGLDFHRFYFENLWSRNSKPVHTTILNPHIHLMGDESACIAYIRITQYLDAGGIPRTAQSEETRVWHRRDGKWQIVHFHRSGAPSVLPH"}
{"Compound": "c1ccc2c(CC3=NCCN3)cccc2c1", "inhibition [%]": -11}
{"Compound": "CCCCC(CC)COC(=O)C(C#N)=C(c1ccccc1)c1ccccc1 (stereo not drawn)", "inhibition [%]": -12}
{"Compound": "CCOC(=O)CC(C)O (stereo not drawn)", "inhibition [%]": -9}
{"Compound": "O=S(=O)(O)CCS", "inhibition [%]": -11}
{"Compound": "COc1cc(O)c(C(=O)/C=C/c2ccc(O)cc2)c(OC)c1", "inhibition [%]": 25}
{"Compound": "CC(C)=CCC/C(C)=C/CO", "inhibition [%]": -4}
{"Compound": "CCCCC[C@H](O)/C=C/[C@H]1C(=O)C[C@H](O)[C@@H]1C/C=C\\CCCC(=O)O", "inhibition [%]": -4}
{"Compound": "O=P(O)(O)C(O)(Cc1cnc2ccccn12)P(=O)(O)O", "inhibition [%]": -7}
{"data": "Study 4", "Compound": "C[C@@H]1CN(c2cc(-c3n[nH]c4ccc(OC5(C)CC5)cc34)ncn2)C[C@H](C)O1", "tested at": "0.1 µM"}
{"target": "Calcium/calmodulin-dependent protein kinase type II subunit delta (CAMK2D, Homo sapiens, UniProt Q13557)", "read-out": "cell-free assay", "method": "competition with immobilised ligand", "remaining binding [%]": 100}
{"target": "Peripheral plasma membrane protein CASK (CASK, Homo sapiens, UniProt O14936)", "read-out": "cell-free assay", "method": "competition with immobilised ligand", "remaining binding [%]": 59}
{"target": "Tyrosine-protein kinase ABL1, phosphorylated (ABL1, Homo sapiens, UniProt P00519, F317I)", "read-out": "binding", "remaining binding [%]": 80}
{"target": "Rho-associated protein kinase 2 (ROCK2, Homo sapiens, UniProt O75116)", "read-out": "cell-free assay", "method": "competition with immobilised ligand", "remaining binding [%]": 89}
{"target": "Myosin-IIIa (MYO3A, Homo sapiens, UniProt Q8NEV4)", "read-out": "cell-free assay", "method": "competition with immobilised ligand", "remaining binding [%]": 100}
{"target": "Receptor tyrosine-protein kinase erbB-2 (ERBB2, Homo sapiens, UniProt P04626)", "read-out": "cell-free assay", "method": "competition with immobilised ligand", "remaining binding [%]": 77}
{"note": "A few entries again (study 1):"}
{"target": "Bone morphogenetic protein receptor type-2 (BMPR2, Homo sapiens, UniProt Q13873, C483R)", "assay": "cell-based kinome profiling", "test system": "human cells", "scale": "relative to: vehicle control", "log2 fold change": -0.08}
{"target": "Serine/threonine-protein kinase DCLK2 (DCLK2, Homo sapiens, UniProt Q8N568)", "test system": "human cells", "scale": "relative to: vehicle", "log2 fold change": -0.636}
